Experimental data collected from several papers.
Numbers after ± are the reported error. Converted amounts (≈) assume the structure as drawn.
BCHE: Cholinesterase (BCHE, Equus caballus, UniProt P81908)
AKR1C3: Aldo-keto reductase family 1 member C3 (AKR1C3, Homo sapiens, UniProt P42330)
CDK5: Cyclin-dependent kinase 5 (CDK5, Homo sapiens, UniProt Q00535)

Compound | target or system | test | system | conditions | how to read | measurement | value
Cc1cccnc1Nc1c2c(nc3ccccc13)CCCC2 | BCHE | enzyme activity, inhibitor | – | 50 µM | – | inhibition | 5.56%
NC(=O)CCCCC=C1C(=O)OC1CCc1ccccc1 (stereo not shown) | Phosphatidylserine lipase ABHD16A (Homo sapiens, UniProt O95870) | enzyme activity in cells, inhibitor | COLO 205 | 1 µM | – | inhibition | < 30%
CC(C)C[C@H](N)C(=O)CCl | cathepsin B (Capra hircus, UniProt A0A452G2V1) | – | goat liver | 10 µM, pH 6.0, with: BANA | – | inhibition | ~9.5%
C[C@]12CC[C@@H]3c4ccc(O)c(Cl)c4CC[C@H]3[C@@H]1CCC2=O | AKR1C3 | enzyme activity, inhibitor, absorbance | – | 100 µM, pH 9 | – | inhibition | 91.7%
COC(=O)C1=CO[C@@H](OC(C)=O)[C@@H]2C(Cn3cc(COCc4ccccc4)nn3)=CC[C@H]12 | BCHE | inhibitor | horse serum BuChE | 10000 µM | – | inhibition | 39.26 ± 0.18%
O=C1[O][Pt]2([OH])([OH])([NH]C3CCCCC3[NH]2)[O]C1=O (stereo not shown) | thioredoxin reductase | – | – | 1 µM | – | inhibition | 13.5%
CCN(Cc1ccccc1)C(=O)CCc1nc(CN2CCN(C(=O)Cc3ccc(OC)c(OC)c3)CC2)no1 | Potassium voltage-gated channel subfamily KQT member 5 (KCNQ5, Homo sapiens, UniProt Q9NR82) | potassium current, whole-cell patch clamp | transfected cells | 10 µM | – | activation V1/2 | -68.2 mV
COc1ccc2cc(Nc3c4c(nc5ccccc35)CCCC4)ccc2c1 | BCHE | enzyme activity, inhibitor | – | 50 µM | – | inhibition | 46.3%
O=C(O)c1ccccc1-c1c2ccc(=O)c([As]3SCCS3)c-2oc2c([As]3SCCS3)c(O)ccc12 | Tyrosine-protein phosphatase non-receptor type 6 (PTPN6, Homo sapiens, UniProt P29350) | enzyme activity, inhibitor, absorbance | – | 1 µM | – | inhibition | > 50%
NCC(CCC(N)C(=O)O)CC1OC(n2cnc3c(N)ncnc32)C(O)C1O (stereo not shown) | Protein arginine N-methyltransferase 7 (PRMT7, Homo sapiens, UniProt Q9NVM4) | enzyme activity, inhibitor | – | 20 µM | – | inhibition | > 50%
C[C@]12CCC[C@H]1[C@@H]1CCc3c(cc(Br)c(O)c3Br)[C@H]1CC2 | AKR1C3 | enzyme activity, inhibitor, absorbance | – | 10 µM, pH 9 | – | inhibition | 50%
C[C@@](O)(C(F)F)[C@H](NC(=O)c1ccc(C#CC#CC2CC2)cc1)C(=O)NO | Interstitial collagenase (MMP1, Homo sapiens, UniProt P03956) | enzyme activity, inhibitor | – | 30 µM | – | inhibition | ≤ 30%
O=C(Oc1cncc(Cl)c1)c1cccc2[nH]ccc12 | Procathepsin L (CTSL, Homo sapiens, UniProt P07711) | enzyme activity, inhibitor | – | concentration not given, with: Z-Phe-Arg-pNA | – | inhibition | no inhibition
C=Cc1cc(OC)c2c(c1)c(=O)oc1c2cc(OC)c2c(O)ccc([C@@H]3O[C@H](C)[C@H](O)[C@@](C)(O)[C@H]3O)c21 | Bifunctional protein GlmU (Staphylococcus aureus, UniProt Q5HIH6) | acetyltransferase activity, inhibitor, DTNB colorimetric | – | 12.5 µM | – | inhibition | 62%
Cc1ccnc(Nc2c3c(nc4ccccc24)CCC(C)C3)c1 (stereo not shown) | BCHE | enzyme activity, inhibitor | – | 50 µM | – | inhibition | < -200%
C[C@@]12CC[C@@H]3c4cc(Cl)c(O)c(Cl)c4CC[C@H]3[C@@H]1CCC2=O | AKR1C3 | enzyme activity, inhibitor, absorbance | – | 10 µM, pH 9 | – | inhibition | 69.9%
Cc1ccc2c(Nc3ccc4ccccc4n3)c3c(nc2c1)CCCC3 | BCHE | enzyme activity, inhibitor | – | 50 µM | – | inhibition | -88.5%
CCCCCCCCC(=O)NCc1ccc(O)c(OC)c1 | mAb 5-D8 | antibody binding, indirect competitive ELISA | – | with: coating antigen hapten 5-OVA | – | IC50 | 9.81 ng/mL (≈ 0.0334 µM)
COc1ccnc(Nc2c3c(nc4cc(C)ccc24)CCCC3)c1 | BCHE | enzyme activity, inhibitor | – | 100 µM | – | inhibition | -91.9%
OC[C@H]1O[C@@H](Oc2cccc(-c3ccccc3)c2)[C@H](O)[C@@H](O)[C@H]1O | Adhesin FmlH, lectin domain (Escherichia coli, UniProt Q1RBS0) | binding to desialylated mucin, ELISA competition | UPEC UTI89 | 100 µM | – | inhibition | 57%

Compound | target or system | test | system | conditions | how to read | measurement | value
CN[C@](C)(C[18F])C(=O)O | MDA-MB-468 tumour model | – | host not given, heart | 30 min, tumour-bearing | – | tracer uptake | 2.7 %ID/g
CCCCCCCCCCOCc1cn(CC2=CC[C@@H]3C(C(=O)OC)=CO[C@@H](O)[C@H]23)nn1 | BCHE | inhibitor | horse serum BuChE | 10000 µM | – | inhibition | 25.04 ± 0.23%
CC[C@H](CO)Nc1nc(NCc2ccc(C)s2)n2ncc(C(C)C)c2n1 | CDK5 | enzyme activity | – | 2 µM | – | inhibition | ~40%
C[C@H](NC(=O)[C@H](CCC(N)=O)NC(=O)[C@H](C)NC(=O)[C@H](CCCCN)NC(=O)[C@H](CCC(N)=O)NC(=O)[C@H](C)NC(=O)[C@H](CCCCN)NC(=O)[C@H](CCC(N)=O)NC(=O)[C@H](C)NC(=O)[C@H](CCC(N)=O)NC(=O)[C@H](CCCCN)NC(=O)[C@H](C)NC(=O)[C@H](CCC(N)=O)NC(=O)[C@H](CCCCN)NC(=O)[C@H](C)NC(=O)[C@H](CCC(N)=O)NC(=O)[C@H](C)NC(=O)[C@H](CCCCN)NC(=O)[C@H](CCC(N)=O)NC(=O)[C@H](C)NC(=O)[C@H](CCCCN)NC(=O)[C@H](CO)NC(=O)[C@H](Cc1ccc(O)cc1)NC(=O)CNC(=O)CNC(=O)CN)C(=O)N[C@@H](CCCCN)C(=O)N[C@@H](CCC(N)=O)C(=O)N[C@@H](C)C(=O)N[C@@H](CCCCN)C(=O)N[C@@H](CCC(N)=O)C(=O)O | – | binding, SPR two-state model | rVλ6Wil fibrils | 300 nM | – | kd1 | 0.203 s⁻¹
Cc1cccc(Nc2c3c(nc4ccccc24)CCC(C)C3)n1 (stereo not shown) | BCHE | enzyme activity, inhibitor | – | 100 µM | – | inhibition | -38.8%
CCCC[C@H](NC(=O)CNC(=O)CNC(=O)c1ccc(NN)nc1)C(=O)N[C@H]1CC(=O)NCCCC[C@@H](C(N)=O)NC(=O)[C@H](Cc2c[nH]c3ccccc23)NC(=O)[C@H](CCCNC(=N)N)NC(=O)[C@@H](Cc2ccccc2)NC(=O)[C@H](Cc2c[nH]cn2)NC1=O [technetium-99m labelled] | – | – | C57 mouse, B16/F1 melanoma, spleen | 2 h, with: NDP-MSH 6.07 nmol blockade | – | uptake | 0.13 ± 0.09 %ID/g
COc1ccc(Nc2c3c(nc4ccccc24)CCCC3)nc1 | BCHE | enzyme activity, inhibitor | – | 100 µM | – | inhibition | 65.7%
CC(C)C[C@H](N)C(=O)N1CCC[C@H]1C(=O)N[C@@H](Cc1ccc(O)cc1)C(=O)N[C@@H](Cc1ccc(O)cc1)C(=O)O | Angiotensin-converting enzyme (ACE, Oryctolagus cuniculus, UniProt P12822) | inhibitor | rabbit | concentration not given, before incubation with ACE | – | inhibition | 91.3 ± 0.03%
COc1cc(C(=O)NCCOCCOCCOCCNC(=O)c2ccc([18F])nc2)ccc1NC(=O)C1NC(CC(C)(C)C)C(C#N)(c2ccc(Cl)cc2F)C1c1cccc(Cl)c1F (stereo not shown) | HepG2 tumour model | – | host not given, heart | 30 min, tumour-bearing | – | tracer uptake | 3.52 %ID/g
CC[C@H](C)C(=O)N1CCC(NC(=O)Nc2ccc(OC(F)(F)F)c(F)c2)CC1 | – | – | human, plasma | oral, 8 mg, single dose, fasted, healthy volunteers | – | Vd/F | 244 L
N=C(N)NCCC[C@@H]1NC(=O)[C@H](CCCCNC(=O)CC[C@H](NC(=O)CCOCCOCCOCCOCCNC(=O)CN2CCN(CC(=O)O)CCN(CC(=O)O)CCN(CC(=O)O)CC2)C(=O)NCCCC[C@@H]2NC(=O)[C@@H](Cc3ccccc3)NC(=O)[C@H](CC(=O)O)NC(=O)CNC(=O)[C@H](CCCNC(=N)N)NC2=O)NC(=O)[C@@H](Cc2ccccc2)NC(=O)[C@H](CC(=O)O)NC(=O)CNC1=O [indium-111 labelled] | – | – | female athymic nude mouse, U-87 MG tumour | intravenous, 3 µCi, 1 h, U-87 MG glioma xenograft | – | tumour uptake | 4.9 %ID/g
O=C(NC1CCN(c2ncnc3[nH]cnc23)CC1)c1cccc(NS(=O)(=O)c2ccc(C(F)(F)F)cc2)c1 | DNA (cytosine-5)-methyltransferase 1 (DNMT1, Homo sapiens, UniProt P26358) | enzyme activity, inhibitor | – | concentration not given | – | inhibition | inactive
O=C(CCCc1ccccc1)N[C@H]1CCOC1=O | AbaR (Acinetobacter baumannii) | reporter gene, antagonist | – | 100 µM, with: 2 700 nM | – | inhibition | 56%
COC(=O)C1=CO[C@@H](O)[C@@H]2C(Cn3cc(-c4ccc(OC)cc4)nn3)=CC[C@H]12 | BCHE | inhibitor | horse serum BuChE | 10000 µM | – | inhibition | 98.69 ± 0.24%
Cc1cccc(Nc2c3c(nc4ccccc24)CCCC3)n1 | BCHE | enzyme activity, inhibitor | – | 100 µM | – | inhibition | -168%
CC1N=C(c2ccccc2F)c2cc(Nc3ccccc3C(F)(F)F)ccc2NC1=O (stereo not shown) | Alpha-2C adrenergic receptor (ADRA2C, Homo sapiens, UniProt P18825) | ligand displacement, radioligand | – | 10 µM | – | inhibition | 16%
OC[C@@H]1NC[C@H](O)[C@@H]1O | Mannosyl-oligosaccharide alpha-1,2-mannosidase 1B (mns1B, Aspergillus phoenicis, UniProt Q12563) | enzyme activity, inhibitor | – | 1 mM | – | inhibition | 50%
CCCc1cnn2c(NCc3ccc(C)s3)nc(N[C@H](CC)CO)nc12 | CDK5 | enzyme activity | – | 2 µM | – | inhibition | 10 to 20%
N=C(N)NCCC[C@@H]1NC(=O)[C@H](CCCCNC(=O)CNC(=O)CNC(=O)CNC(=O)CC[C@H](NC(=O)CCOCCOCCOCCOCCNC(=O)CC[C@H](NC(=O)CN2CCN(CC(=O)O)CCN(CC(=O)O)CCN(CC(=O)O)CC2)C(=O)NCCOCCOCCOCCOCCC(=O)N[C@@H](CCC(=O)NCC(=O)NCC(=O)NCC(=O)NCCCC[C@@H]2NC(=O)[C@@H](Cc3ccccc3)NC(=O)[C@H](CC(=O)O)NC(=O)CNC(=O)[C@H](CCCNC(=N)N)NC2=O)C(=O)NCC(=O)NCC(=O)NCC(=O)NCCCC[C@@H]2NC(=O)[C@@H](Cc3ccccc3)NC(=O)[C@H](CC(=O)O)NC(=O)CNC(=O)[C@H](CCCNC(=N)N)NC2=O)C(=O)NCC(=O)NCC(=O)NCC(=O)NCCCC[C@@H]2NC(=O)[C@@H](Cc3ccccc3)NC(=O)[C@H](CC(=O)O)NC(=O)CNC(=O)[C@H](CCCNC(=N)N)NC2=O)NC(=O)[C@@H](Cc2ccccc2)NC(=O)[C@H](CC(=O)O)NC(=O)CNC1=O [indium-111 labelled] | – | – | female athymic nude mouse | intravenous, 24 h, U-87 MG glioma xenograft | baseline: tumour over bone | tumour to bone ratio | 7.02 ± 1.39
CC(=O)NC(Cc1ccc(Br)c(Cl)c1)C(=O)N[C@@H](C)C(=O)N1CCC[C@H]1C(=O)N1CCC[C@H]1C(=O)N[C@@H](CCC(=O)O)C(=O)N[C@@H](Cc1c[nH]cn1)C(=O)N[C@@H](CO)C(=O)N[C@H](C(=O)N[C@@H](C)C(N)=O)[C@@H](C)OP(=O)(O)O (stereo partly shown) | Cyclin-dependent kinase 5, with p35 (CDK5, Homo sapiens, UniProt Q00535) | enzyme activity, inhibitor | – | 10 µM | – | inhibition | 0.49%

For quick reference, copied from above:
Compound | target or system | test | system | conditions | how to read | measurement | value
CCCCCCCCC(=O)NCc1ccc(O)c(OC)c1 | mAb 5-D8 | antibody binding, indirect competitive ELISA | – | with: coating antigen hapten 5-OVA | – | IC50 | 9.81 ng/mL (≈ 0.0334 µM)
COc1ccnc(Nc2c3c(nc4cc(C)ccc24)CCCC3)c1 | BCHE | enzyme activity, inhibitor | – | 100 µM | – | inhibition | -91.9%
OC[C@H]1O[C@@H](Oc2cccc(-c3ccccc3)c2)[C@H](O)[C@@H](O)[C@H]1O | Adhesin FmlH, lectin domain (Escherichia coli, UniProt Q1RBS0) | binding to desialylated mucin, ELISA competition | UPEC UTI89 | 100 µM | – | inhibition | 57%
CN[C@](C)(C[18F])C(=O)O | MDA-MB-468 tumour model | – | host not given, heart | 30 min, tumour-bearing | – | tracer uptake | 2.7 %ID/g
CCCCCCCCCCOCc1cn(CC2=CC[C@@H]3C(C(=O)OC)=CO[C@@H](O)[C@H]23)nn1 | BCHE | inhibitor | horse serum BuChE | 10000 µM | – | inhibition | 25.04 ± 0.23%
